Published values from different studies.
Numbered parts are unrelated; each lists some results of a single study. Substitutions count along the parent as printed.

Set 1
Target: CCND1, cyclin fold, Cln2 fusion (human)
Technique: yeast growth competition, sequencing
Sample: yeast
Notes: strong parent motif
Baseline: not given
Reading: higher = stronger binding
Quantity: normalised enrichment score
Starting sequence: PKN2 docking peptide (human); VSAVRKLDFSDTM; partner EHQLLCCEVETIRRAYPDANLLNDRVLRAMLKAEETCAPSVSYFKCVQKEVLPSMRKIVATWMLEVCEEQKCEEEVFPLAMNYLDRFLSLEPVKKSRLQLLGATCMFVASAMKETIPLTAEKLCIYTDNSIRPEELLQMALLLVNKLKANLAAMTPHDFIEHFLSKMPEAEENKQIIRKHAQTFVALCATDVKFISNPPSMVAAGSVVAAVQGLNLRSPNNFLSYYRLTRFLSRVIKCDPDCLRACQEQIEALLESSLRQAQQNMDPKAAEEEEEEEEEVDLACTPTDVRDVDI
D11N: 4.86
L7A: 0.127
S2L: 2.92
T12Y: 5.78
D8M: 1.55
S2G: 5.31
R5I: 2.61
D11E: 5.58

Set 2
Target: RNA binding protein fox-1 homolog 2, RRM domain, GST-SBP tag (RBFOX2, Homo sapiens, UniProt O43251-10, residues 100-194)
Technique: RNA Bind-n-Seq
Molecule type: RNA
Sample: in vitro
Concentration: 365 nM
Notes: natural RNA segment, single round, ends assumed
Baseline: no-protein control
Reading: higher = stronger binding
Quantity: RBNS enrichment (R)
Shared flanks, not repeated: GGGAGUUCUACAGUCCGACGAUC … UGGAAUUCUCGGGUGCCAA
Residues (chain): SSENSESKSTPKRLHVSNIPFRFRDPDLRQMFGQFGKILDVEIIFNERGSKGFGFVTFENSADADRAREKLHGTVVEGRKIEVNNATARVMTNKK
GCCAGCCAGCCACAUGCAGCUUUGCUGAUAAAUGGAUACCUUUUCACACCAUUUAUGAAAACAAAAUUUCAACUCUGUUGCCUGUUCUAUUUAAGAAAAAUUGCUGUUUC: 0.551
UGAAGCAUUGUGUGUUCUCAUUCGGGUGGUAACAAUGUAUGUGUAAUAUUUUUUUCUUAGUGAUUUUGACAGUUUAAAUGUUUAACAACUUAAAGCAUUAAAAAUGCUUA: 0.709
ACCCACAUUCCACUCUAGUUGGGGCUUGUGACUUAGCCCUGGACUCUGUUUCUGCAGGCAAGGGACAGCGAGGGCUGAGCAUUGGCCUGUAUAAUCUGGUCAGCUUGGAC: 0.373
CUGUUAAGUCCCAAGUCCGUCAUGGGGUCAGGUUACACCCAGAGGUGUUUUCACUGUGGGGUUCCAGGGAGGCUGGGGAGAAUGGGCAGAGCCCAGGGUUCCAUCUCACC: 0.459
AAUGCUGAUGGGAACUUGGAAGUUCAGAAACCAAGGGGAAAUGUCCUGAGAUAACAUUUGCAUUGUCGACCUCAGUUGACUGUUUUUACAAUAAAAAUAUUUUGCAGCUU: 0.497
UAGGAUCCCAAGUGGCAAGAAAGCUCACAUUUUUUGAGUUCAAAUGCUACUGUCUAAGCGCAAAGUCCCUCAUCCUGAAGUAGACUAGAGCCCGGCCACAAAUUCUGAGG: 0.385
CGGGACUUAAAUUUCACACUAGAAAUGAGCUCCAGUCUUAACUCAGUGAAUGGGAAACACAUGUUCCUCUCUCCAGGUUACACUGAAACCUGUGUAGUGUGUACAGAGUG: 0.238
ACCUGAAGAAAGCCUCUCAGUGUGGAGAUAAUUUAUUUUUACCUUCACUGUGACCUUGAGAAGAUUCUUCCCAUUCUCCAUUUGUUAUCUGGGAACUUAUUAAAUGGAAA: 2.1

Further values, each from its own experiment
P1: PafA, mature enzyme, eGFP fusion (Elizabethkingia meningoseptica, UniProt Q9KJX5); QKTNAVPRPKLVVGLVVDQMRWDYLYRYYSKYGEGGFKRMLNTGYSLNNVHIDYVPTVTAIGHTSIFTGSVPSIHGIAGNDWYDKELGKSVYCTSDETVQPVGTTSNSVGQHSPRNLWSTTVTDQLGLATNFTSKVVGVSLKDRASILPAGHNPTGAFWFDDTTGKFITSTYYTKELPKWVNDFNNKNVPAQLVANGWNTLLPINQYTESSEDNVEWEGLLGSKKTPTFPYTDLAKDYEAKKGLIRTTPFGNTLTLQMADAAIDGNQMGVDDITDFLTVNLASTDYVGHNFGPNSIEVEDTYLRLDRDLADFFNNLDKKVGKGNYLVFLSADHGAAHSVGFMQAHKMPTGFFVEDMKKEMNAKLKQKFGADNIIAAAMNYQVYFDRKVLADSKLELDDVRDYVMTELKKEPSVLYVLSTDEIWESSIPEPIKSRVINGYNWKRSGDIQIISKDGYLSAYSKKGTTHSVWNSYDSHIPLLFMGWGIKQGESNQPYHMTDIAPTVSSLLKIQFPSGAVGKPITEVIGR
P1 D391G
phosphate dissociation constant (inorganic phosphate, free oxyanion; microfluidic competitive inhibition; in vitro, cell-free expressed; not given, derived from inhibition constants, unchanged parent 615000 nM; lower = stronger binding): 649 µM

PhoQ, residues 284 288 289 292 302 303 SVTLVV
fold induction (PhoP, residues 12 14 15 18 19 IFFTR (Escherichia coli, UniProt P23836); Sort-seq, measured: YFP reporter; E. coli; PhoQ-PhoP variant library, together with: 10 µM Mg2+; baseline: high Mg2+ state, higher = stronger signaling): 3.39

For quick reference, copied from above (set 1):
S2G: 5.31
D11N: 4.86
